Experimental data collected from several papers.
Each numbered part is a random draw from the data of one study; scales do not carry over between parts. “And” joins repeats or separate records; there may be more than shown. pEC50: −log10 of the molar value.

Set 1 — mode: agonist
Target: Beta-1 adrenergic receptor (ADRB1, Homo sapiens, UniProt P08588)
Sequence of UniProt P08588 (whole entry, looked up): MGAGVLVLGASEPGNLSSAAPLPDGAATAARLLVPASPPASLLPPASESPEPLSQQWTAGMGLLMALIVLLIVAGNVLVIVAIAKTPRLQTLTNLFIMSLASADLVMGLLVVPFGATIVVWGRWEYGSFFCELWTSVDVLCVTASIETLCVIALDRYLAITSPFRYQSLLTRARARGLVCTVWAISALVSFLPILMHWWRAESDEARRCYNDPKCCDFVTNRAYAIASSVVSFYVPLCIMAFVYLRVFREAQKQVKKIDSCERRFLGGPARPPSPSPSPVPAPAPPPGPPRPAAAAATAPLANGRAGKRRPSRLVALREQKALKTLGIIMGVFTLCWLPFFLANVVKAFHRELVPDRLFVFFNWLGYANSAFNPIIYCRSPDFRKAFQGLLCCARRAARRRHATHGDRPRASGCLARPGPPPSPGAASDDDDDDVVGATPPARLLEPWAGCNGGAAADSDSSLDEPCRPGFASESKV
The pEC50 of `COc1ccc(CNCc2ccc(C)s2)cc1OCC(O)CN1CCCCC1` (stereo not drawn) is reported as at most 4.00.
`C#CCNC(=O)[C@@H]1Cc2cn(CC#CC)c3cccc(c23)[C@H](CC(C)C)N1` has a pEC50 of at most 4.00.
`Cc1noc2c(-c3ccc(N4CCOCC4)cc3)cc(-c3cccs3)nc12` has a pEC50 of at most 4.00.
The pEC50 of `Cn1cc(-c2cnc(NC(=O)Cc3ccc(F)cc3)c3c2CCO3)cn1` is reported as at most 4.00.
With `N#Cc1cc2c(OCC(O)CN3CCN(C(c4ccccc4)c4ccccc4)CC3)cccc2[nH]1` (stereo not drawn) the pEC50 was 5.13.
With `Cc1nc(CN2CCOCC2C2CCCC2O)nc2ccccc12` (stereo not drawn) the pEC50 was at most 4.00.
The pEC50 of `CC(C)CN1C(=O)COC[C@@H]1[C@H](O)c1ccc(NC(=O)Cc2ccccc2)cc1` is reported as at most 4.00.
`COc1cc(CN2CCOCC2)ccc1OCC(O)CN1CCSCC1` (stereo not drawn) gave a pEC50 of at most 4.00.
For `Cc1cc(Cl)ccc1OCC(O)CN1CCOCC1` (stereo not drawn), the pEC50 was at most 4.00.
The pEC50 of `COc1ccc(CN2C(=O)COC[C@@H]2[C@H](O)c2ccc(NC(=O)Cc3ccccc3)cc2)cc1` is reported as at most 4.00.

Set 2 — technique: CellTiter-Glo
SMILES: CO[C@@H]1[C@@H](OC(N)=O)[C@@H](O)[C@H](Oc2ccc3c(O)c(NC(=O)c4ccc(O)c(CC=C(C)C)c4)c(=O)oc3c2C)OC1(C)C
RPE-1 BRCA1-/- PARPi-resistant R4; 25 µM, 6 days — viability: 65.5% and 76.4% and 95.2%.
RPE-1 BRCA1-/- PARPi-resistant R4; 50 µM, 6 days — viability: 72.8%.
The viability was 69.4% (UWB1.289 PARPi-resistant clone; 100 µM, 6 days; baseline: untreated).
For RPE-1 p53-/- BRCA1-/-; 25 µM, 6 days; baseline: untreated: viability read 67.6% and 76.1% and 89.6%.
The viability was 81.5% (RPE-1 BRCA1-/- PARPi-resistant R4; 50 µM, 6 d).
For RPE-1 BRCA1-/- PARPi-resistant R3; 100 µM, 6 d: viability read 66.5% and 67.1%.

Set 3 — effect on: binding; technique: radioligand binding; tested at: 10 µM
Target: Muscarinic acetylcholine receptor M5 (CHRM5, Homo sapiens, UniProt P08912)
Sequence of UniProt P08912 (whole entry, looked up): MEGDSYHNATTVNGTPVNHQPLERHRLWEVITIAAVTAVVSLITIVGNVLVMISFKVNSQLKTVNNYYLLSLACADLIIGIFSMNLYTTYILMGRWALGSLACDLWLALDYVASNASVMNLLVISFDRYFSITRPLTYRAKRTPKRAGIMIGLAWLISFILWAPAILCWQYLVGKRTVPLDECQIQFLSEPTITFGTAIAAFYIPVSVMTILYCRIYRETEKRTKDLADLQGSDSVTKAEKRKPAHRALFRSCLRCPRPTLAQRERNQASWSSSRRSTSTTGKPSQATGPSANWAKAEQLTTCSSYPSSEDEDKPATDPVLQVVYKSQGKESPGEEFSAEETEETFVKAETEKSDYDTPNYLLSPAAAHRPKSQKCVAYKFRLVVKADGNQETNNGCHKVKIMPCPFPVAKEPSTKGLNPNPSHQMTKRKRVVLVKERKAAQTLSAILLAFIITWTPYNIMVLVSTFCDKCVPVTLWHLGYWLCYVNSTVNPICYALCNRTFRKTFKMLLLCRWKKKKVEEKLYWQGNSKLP
The inhibition of `CNC(=O)c1ccc(Nc2ncc(C(F)(F)F)c(NCc3nccnc3N(C)S(C)(=O)=O)n2)cc1` is reported as 5.41%.
The inhibition of `COc1cc(-c2cn(C3CCc4ccccc4N(CC(F)(F)F)C3=O)nn2)ccc1-n1ccc(C)n1` (stereo not drawn) is reported as 0.39%.
With `O=C(Nc1ccc(-n2nc(-c3cccnc3)cc2C(F)(F)F)cn1)c1ccc(-c2ccccc2)c(F)c1` the inhibition was 0.37%.
`O=C(NC[C@@H]1[C@H]2CN(C(=O)OCc3cc(C(F)(F)F)cc(C(F)(F)F)c3)C[C@@H]12)c1ccc2[nH]nnc2c1` gave an inhibition of 15.3%.
`CC(C)CC(=O)N1CCc2nc(-c3ccc(Br)cc3)nc(N(C)Cc3ccccc3)c2C1` gave an inhibition of 7.59%.
`CC(=O)Nc1nc(CN2CCC[C@H](Cc3cc(C)nc(C)c3)C2)cs1` gave an inhibition of -6.15%.
The inhibition of `Cc1c(NC(=O)c2cc(C(N)=O)nc3cc(F)ccc23)c(C(F)(F)F)nn1Cc1ccc(C(C)(C)C)cc1` is reported as 7.12%.
`Cc1nc(C2CCN(C(=O)c3ccc(OC(F)(F)F)cc3N)CC2)c2ncc(N3CCN(C)CC3)cc2n1` gave an inhibition of -3.81%.
For `CS(=O)(=O)NCC[C@H](NC(=O)c1cncc2c1cnn2-c1ccc(F)cc1)c1ccnc(S(C)(=O)=O)c1`, the inhibition was 5.99%.
The inhibition of `CN1C(=O)[C@@H](N2CCc3cn(Cc4ccccc4)nc3C2=O)COc2ccccc21` is reported as 6.63%.
With `CCCOc1ccc([C@H]2[C@H](C(=O)O)[C@@H](c3ccc4c(c3)OCO4)CN2CC(=O)Nc2c(CC)cccc2CC)cc1` the inhibition was 27.3%.
With `COc1cccc(CNC(=O)c2nc3scc(COCc4ccc(C(=O)O)cc4)c3c(=O)[nH]2)c1` the inhibition was -7.42%.
For `CN([C@@H]1CCc2c(CC(=O)O)c3cc(S(C)(=O)=O)ccc3n2C1)S(=O)(=O)c1ccc(F)cc1`, the inhibition was -6.18%.
For `C[C@@]1(Cc2ccc(C#N)cc2)C(=O)N(c2cc(Cl)cc(Cl)c2)c2ncc(C(=O)NC3(c4nc(C5CCC5)no4)CC3)n21`, the inhibition was -8.46%.
`CCOC(=O)c1cc2cc(-c3cc(C(=O)NCc4ccc(C(=O)O)cc4)nn3C)ccc2[nH]1` has an inhibition of 7.64%.
`CCOCCn1cc(C(=O)Nc2ccc(-n3nc(-c4cccnc4)cc3C(F)(F)F)cn2)ccc1=O` has an inhibition of -11.2%.
`O[C@]1(C(F)(F)F)CCCC[C@H]1Nc1ccc(F)cc1` gave an inhibition of 10.4%.
With `CC(C)(O)c1cncc(-c2nc3ccc(F)cc3n2C2CC2)c1` the inhibition was -2.81%.
For `C[C@@H]1CN(c2cc(-c3nn(C)c4ccc(OC5(C)CC5)cc34)ncn2)C[C@H](C)O1`, the inhibition was 2.87%.
For `CC(=O)Nc1c(F)cc(C(=O)N[C@H]2CC[C@H](O)CC2)cc1O[C@@H](C)c1ccccc1`, the inhibition was 0.93%.
The inhibition of `O=C(Nc1cnc(Oc2ccc(F)cc2)nc1)N1CCc2ncccc2[C@@H]1c1ccc(F)cc1` is reported as 12%.
`CN(C)C(=O)Cn1cc(-c2nc([C@@](C)(c3ccc(-c4cnc(N)nc4)cc3)C3CC3)no2)cn1` has an inhibition of 5.21%.
With `O=C(O)c1cc(-c2ccc(C3CCNCC3)cc2)c2ccc(-c3ccc(C(F)(F)F)cc3)cc2c1` the inhibition was 10.1%.
With `Cc1nccc(COC(=O)N2C[C@@H]3[C@@H](CNC(=O)c4ccc5[nH]nnc5c4)[C@@H]3C2)n1` the inhibition was -9.7%.
The inhibition of `Nc1c(C(=O)NCc2ccc(C(=O)NCCCC3CCCCC3)cc2)cnn1-c1ccccc1` is reported as -30.4%.

Set 4 — organism: Sarcocystis neurona; effect on: parasite growth; tested at: 10 µM; time: 96 h; setting: first screen
`CN(C)CCc1c[nH]c2ccc(C[C@H]3COC(=O)N3)cc12` has an inhibition of 4%.
For `CCN(CC)CCOC(=O)c1ccc(N)cc1`, the inhibition was -22.7%.
With `CCCCc1nc(Cl)c(CO)n1Cc1ccc(-c2ccccc2-c2nn[nH]n2)cc1` the inhibition was -10.4%.
The inhibition of `Cc1cc(NS(=O)(=O)c2ccc(N)cc2)no1` is reported as -12.5%.
For `OCCN1C[C@H](O)[C@@H](O)[C@H](O)[C@H]1CO`, the inhibition was -12.9%.
For `CN1CCN(CCCN2c3ccccc3Sc3ccc(C(F)(F)F)cc32)CC1`, the inhibition was 13.6%.
`Cc1cccc(Nc2ccncc2S(=O)(=O)NC(=O)NC(C)C)c1` has an inhibition of -17.1%.
`CC(C)[C@H](N)C(=O)OCCOCn1cnc2c(=O)[nH]c(N)nc21` gave an inhibition of 7.7%.

Set 5 — organism: Cryptosporidium parvum; technique: time-kill; cells: HCT-8; strain: nanoluciferase-expressing; reading: higher = more parasites
SMILES: CN(C(=O)c1ccn2ncc(-c3ccc(C(N)=O)cc3)c2c1)c1ccc(C#N)cn1
It gave 20700 RLU and 29000 RLU for parasite luminescence (6.667 µM, 72 h).
The parasite luminescence was 103000 RLU and 99700 RLU (2.222 µM, 8 h).
For 0.00102 µM, 4 h: parasite luminescence read 59500 RLU and 67700 RLU.
0.00102 µM, 24 h — parasite luminescence: 221000 RLU and 241000 RLU.
20 µM, 24 h — parasite luminescence: 97300 RLU and 90000 RLU.
The parasite luminescence was 167000 RLU and 256000 RLU (0.00102 µM, 48 h).
0.00914 µM, 72 h — parasite luminescence: 180000 RLU and 143000 RLU.
It gave 31500 RLU and 28800 RLU for parasite luminescence (20 µM, 48 h).

For quick reference, copied from above (set 4):
The inhibition of `Cc1cc(NS(=O)(=O)c2ccc(N)cc2)no1` is reported as -12.5%.
For `OCCN1C[C@H](O)[C@@H](O)[C@H](O)[C@H]1CO`, the inhibition was -12.9%.
For `CN1CCN(CCCN2c3ccccc3Sc3ccc(C(F)(F)F)cc32)CC1`, the inhibition was 13.6%.
